Published values from different studies.
Each line is one published result; not all experiments were run side by side. Values joined by “and” are separate records of one study, mostly repeats; a detail may differ. ± marks the error that the study gave.
BMPR2: Bone morphogenetic protein receptor type-2 (BMPR2, Homo sapiens, UniProt Q13873)
TOP2A: DNA topoisomerase 2-alpha (TOP2A, Homo sapiens, UniProt P11388)
ZBTB11/CRBN: ZBTB11/CRBN (Homo sapiens, UniProt O95625+Q96SW2)
PHO85: Negative regulator of the PHO system (PHO85, Candida albicans, UniProt Q9HGY5)
T1: DNA hairpin, hairpin; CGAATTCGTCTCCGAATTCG

| SMILES | target | test | system | setting | how to read | quantity | value |
| --- | --- | --- | --- | --- | --- | --- | --- |
| OC[C@H]1OC(O)[C@H](O)[C@@H](O)[C@@H]1O (stereo partly drawn) | Hexokinase-3 (HK3, Homo sapiens, UniProt P52790, R480W) | substrate inhibition | – | mutant R480W, complete substrate inhibition model, together with: ATP 20 mM | – | kcat | 34 ± 3 s⁻¹ |
| Nc1ncnc2c1ncn2[C@@H]1O[C@H](COP(=O)(O)OP(=O)(O)O)[C@@H](O)[C@H]1O | DNA mismatch repair protein MutL (mutL, Bacillus subtilis, UniProt P49850) | differential scanning fluorimetry | – | pH 7.5, together with: nucleotide 2 mM | – | Tm | 38.5 ± 0.3 °C |
| C=CC(=O)N1CCC(COCC(=O)N2CCN(c3nc(-c4cnc(N)nc4C(F)F)nc(N4CCOC[C@@H]4C)n3)CC2)CC1 | BMPR2 | KINOMEscan | – | 1 µM | relative to: DMSO control | remaining binding | 98% |
| CSCC[C@H](N)C(=O)Nc1ccc2ccccc2c1 | rat neuron-specific aminopeptidase | substrate | – | – | – | Km | 2.9 µM |
| Nc1ncnc2c1ncn2[C@@H]1O[C@H](COP(=O)(O)OP(=O)(O)O)[C@@H](O)[C@H]1O | Cell cycle histidine kinase CckA, CA domain (Caulobacter vibrioides, UniProt Q9X688) | binding, ITC | – | together with: without c-di-GMP | – | association constant | 953 ± 113 M⁻¹ |
| COc1cc(-c2cncc3c2CN(C)Cc2cc(N4CCNCC4)ccc2-3)cc(OC)c1OC | Macrophage colony-stimulating factor 1 receptor (CSF1R, Homo sapiens, UniProt P07333) | kinase activity | – | 1 µM, human enzyme, together with: ATP 10 µM | relative to: DMSO control | remaining activity | 105% |
| Nc1ccc(C(=O)O)cc1 | BEST1, with wild-type BEST1 (Homo sapiens, UniProt O76090, D302A) | ion current, whole-cell patch clamp | HEK293 co-expressing mutant and wild-type | concentration not given, voltage 100 mV | – | current density | 10.6 pA/pF and 22.4 pA/pF and 40.1 pA/pF and 23.4 pA/pF and 13.9 pA/pF and 18.4 pA/pF |
| O=c1nc(SCc2cc(F)cc(C(F)(F)F)c2)nc(SCc2ccc3sccc3c2)[nH]1 | TOP2A | DNA relaxation | – | 7.8 µM, replicate 2 | – | relaxed DNA | 99.3% |
| CC(C)(NCCc1ccc(C(F)(F)F)c(Cl)c1)c1cccc(NC2=CC(=O)N(C3CCC(=O)NC3=O)C2=O)c1 (stereo not drawn) | ZBTB11/CRBN | protein degradation, degrader, HiBiT luminescence | MOLT-4 | – | – | Dmax | 41% |
| Cc1cc(C)c2nc(C)cc(NCCc3ccccc3)c2c1 | CatSper channel complex (Homo sapiens, UniProt Q7RTX7+Q86XQ3+Q8NEC5+Q96P56) | ion current, whole-cell patch clamp | human sperm | 10 µM, at -80 mV | – | inward current density | -4 ± 0.3 pA/pF |
| O=C(O)c1ccc(Nc2ncc3c(n2)-c2ccc(Cl)cc2C(c2c(F)cccc2F)=NC3)cc1 | MAPK2(m) | kinase activity | – | 1 µM | – | remaining activity | 105% |
| NCCCS(=O)(=O)O | Sodium- and chloride-dependent taurine transporter (SLC6A6, Homo sapiens, UniProt P31641, G62A) | binding, microscale thermophoresis | – | 250 µM, room temperature, together with: 50 nM labelled protein | higher = more binding | normalised MST signal | 0.00205 |
| Nc1nc2c(ncn2[C@@H]2O[C@H](COP(=O)(O)O)[C@@H](O)[C@H]2O)c(=O)[nH]1 | GUK1 (Homo sapiens, UniProt Q16774, E72A) | enzyme activity, NADH-coupled | – | 1000 µM | – | reaction rate | 0.398 s⁻¹ and 0.544 s⁻¹ and 0.546 s⁻¹ |
| COc1cccc2c(Nc3ccc4[nH]c(C(=O)N/N=C/c5ccc(SC)cc5)cc4c3)cc(C)nc12 | Nuclear receptor subfamily 1 group D member 1 (NR1D1, Homo sapiens, UniProt P20393) | reporter gene, Gal4 hybrid reporter | – | 3 µM | relative to: vehicle | activation | 0.81 fold |
| N=C(N)c1ccc(-c2ccc(-c3cc4ccc(C(=N)N)cc4[nH]3)s2)cc1 | T1, DNA hairpin, hairpin | SPR | – | NaCl 100 mM | – | Kd | 6.5 nM |
| O=C(O)c1cccc(-c2noc(-c3ccccc3F)n2)c1 | Flavin reductase (NADPH) (BLVRB, Homo sapiens, UniProt P30043) | binding | – | – | – | koff | 0.012 s⁻¹ |
| C[C@H]1C(=O)/C(=C/c2ccccc2)[C@H]2C[C@@H]1N(Cc1ccccc1)C[C@@]2(C)O | Sigma intracellular receptor 2 (Tmem97, Rattus norvegicus, UniProt Q5U3Y7) | radioligand binding | – | 1 µM, together with: [3H]DTG | – | binding | no binding |

| SMILES | target | test | system | setting | how to read | quantity | value |
| --- | --- | --- | --- | --- | --- | --- | --- |
| Cc1n[nH]c2ccc(-c3cc(OC[C@@H](N)Cc4ccccc4)cnc3-c3ccoc3)cc12 | PHO85 | kinase binding, competitor, MIB/MS competition, item: PHO85 | Candida albicans cell lysate | 1 µM | relative to: DMSO | log2 fold change | 0.232 |
| CCC(C)(NCCc1ccc(C(F)(F)F)c(Cl)c1)c1cccc(NC2=CC(=O)N(C3CCC(=O)NC3=O)C2=O)c1 (stereo not drawn) | ZBTB11/CRBN | protein degradation, degrader, HiBiT luminescence | MOLT-4 | – | – | Dmax | 71% |
| C[C@@H](c1ccc(-n2cnc3c(N)ncnc32)cc1)N1CCc2nn(C)c(Cc3ccccc3)c2C1=O | BMPR2 | KINOMEscan | – | 0.1 µM | relative to: DMSO | remaining binding | 70% |
| CC(C(=O)Nc1c(F)cccc1F)N1CCN(c2ccccc2)CC1 (stereo not drawn) | Short transient receptor potential channel 6 (TRPC6, Homo sapiens, UniProt Q9Y210) | ion current, GCaMP6 calcium imaging | HEK293 transfected | 20 µM, unit not given, together with: 50 µM OAG | relative to: control | peak Ca2+ influx | 1.38 ± 0.09 |
| O=S(=O)(O)C1CCNCC1 | Sodium- and chloride-dependent taurine transporter (SLC6A6, Homo sapiens, UniProt P31641, Y138A) | binding, microscale thermophoresis | – | 500 µM, room temperature, together with: 50 nM labelled protein | higher = more binding | normalised MST signal | 0.0425 |
| c1coc(-c2n[nH]cc2-c2ccnc3ccccc23)c1 | PHO85 | kinase binding, MIB/MS competition | Candida albicans lysate | 1 µM | relative to: DMSO, negative = stronger binding | log2 fold change | -0.22 |
| CC[C@H](C)[C@@H]1NC(=O)[C@H](C)NC(=O)[C@H]([C@@H](C)CC)NC(=O)[C@H](CCC(N)=O)NC(=O)[C@H](C)NC(=O)[C@H](CCCNC(=N)N)NC(=O)[C@H](C(C)C)NC(=O)[C@H](CC(C)C)NC(=O)[C@H](CCC(=O)O)NC(=O)[C@H](CCCNC(=N)N)NC(=O)CNC(=O)[C@@H](NC(=O)[C@H](CC(C)C)NC(=O)[C@H](CCCCN)NC(=O)[C@@H](NC(=O)[C@@H](NC(=O)[C@H](CCC(=O)O)NC(=O)[C@H](CCC(=O)O)NC(=O)[C@H](CCSC)NC(=O)[C@H](Cc2c[nH]c3ccccc23)NC(=O)[C@H](CO)NC(=O)[C@@H](N)CC(=O)O)C(C)C)[C@@H](C)CC)CSSC[C@@H]2NC(=O)[C@@H](NC(=O)[C@H](CCCCN)NC(=O)[C@H](CC(N)=O)NC(=O)[C@H](C)NC(=O)[C@H](CC(C)C)NC(=O)[C@H](C)NC(=O)[C@H](CO)NC(=O)[C@H](Cc3ccc(O)cc3)NC(=O)[C@H](CC(C)C)NC(=O)[C@H](CCC(N)=O)NC(=O)c3ccc(-c4c5ccc(=[N+](C)C)cc-5oc5cc(N(C)C)ccc45)c(C(=O)[O-])c3)CSSC[C@H](NC(=O)CNC(=O)[C@H](C(C)C)NC(=O)[C@H](Cc3c[nH]cn3)NC2=O)C(=O)N[C@@H]([C@@H](C)O)C(=O)N[C@@H](CCCCN)C(=O)N[C@@H](CCCNC(=N)N)C(=O)N[C@@H](CO)C(=O)N[C@@H](CC(C)C)C(=O)N[C@@H](C)C(=O)N[C@@H](CCCNC(=N)N)C(=O)N[C@@H](Cc2ccccc2)C(=O)N[C@H](C(=O)O)CSSC[C@@H](C(=O)NCC(=O)N[C@@H](CCSC)C(=O)N[C@@H](CO)C(=O)N[C@H](C(=O)N[C@@H](Cc2c[nH]c3ccccc23)C(=O)N[C@@H](CO)C(=O)O)[C@@H](C)O)NC1=O | Relaxin receptor 1 (RXFP1, Homo sapiens, UniProt Q9HBX9, F76A/Y80A) | dissociation, NanoBRET | – | infinite dilution | – | koff fast phase | 0.00929 s⁻¹ |
| Nc1ncnc2c1ncn2[C@@H]1O[C@H](COP(=O)(O)CP(=O)(O)OP(=O)(O)O)[C@@H](O)[C@H]1O | P2X purinoceptor 1 (P2RX1, Homo sapiens, UniProt P51575, F188L) | calcium influx | – | 316 nM | relative to: ionomycin response | calcium influx | 87.5% and 85.3% and 94% |
| O=c1nc(SCc2ccc(C(F)(F)F)cc2)nc(SCc2csc3ccc(Cl)cc23)[nH]1 | TOP2A | DNA relaxation | – | 31.25 µM | – | mean relaxed DNA | 0.3% |
| O=c1cc(-c2ccc([N+](=O)[O-])cc2)[nH]c2c(-c3ccc(Cl)cc3)c(Cc3ccccc3)nn12 | tRNA N6-adenosine threonylcarbamoyltransferase (Homo sapiens, UniProt Q9NPF4) | thermal stability, binder, thermal proteome profiling | RD, cell lysate | 50 µM, 0.5% DMSO | relative to: DMSO vehicle | melting temperature shift | 3.7 °C |
| CCN1CCC[C@H]1CNC(=O)c1c(O)c(Cl)cc(Cl)c1OC | Retinoic acid-induced protein 3 (GPRC5A, Homo sapiens, UniProt Q8NFJ5) | β-arrestin recruitment, TANGO luminescence, item: GPRC5A | – | concentration not given | relative to: basal luminescence | log2 fold change | 0.324 |
| CC(C)c1cccc2c(-c3ccccc3)cc(-c3ccc(-c4ccc(C(=O)O)cc4)[nH]3)nc12 | Retinoic acid receptor gamma (RARG, Homo sapiens, UniProt P13631) | reporter gene, antagonist | – | – | relative to: IC50 RARα over IC50 RARG | selectivity ratio | > 100 fold |
| CC[C@@H]1[C@H](F)C(=O)N[C@@H]1COc1nccc2cc(C(N)=O)c(OC)cc12 | Serine/threonine-protein kinase 38 (STK38, Homo sapiens, UniProt Q15208) | ATP-site probe binding, ActivX profiling | THP-1 cell lysate | 0.04 mM, Lys1 site | – | inhibition | -3.9% |
| Nc1ncnc2c1ncn2[C@@H]1O[C@H](COP(=O)(O)OP(=O)(O)O)[C@@H](O)[C@H]1O | GUK1 (Homo sapiens, UniProt Q16774) | binding, isothermal titration calorimetry | – | molar ratio 1.11, fitted curve | – | ΔH | -1.19 kcal/mol |
| NC(=O)c1ccc[n+]([C@@H]2O[C@H](COP(=O)(O)OP(=O)(O)OC[C@H]3O[C@@H](n4cnc5c(N)ncnc54)[C@H](O)[C@@H]3O)[C@@H](O)[C@H]2O)c1 | ALDH-137 | enzyme activity, cofactor, NADH formation | – | apparent Km, together with: hexanal | – | Km | 29 ± 1 µM |
| O=C(NC1CCC1)c1ccc2nc(-c3cccc(NS(=O)(=O)NCCN4CCCCC4)c3)cn2c1 | Mitogen-activated protein kinase kinase kinase kinase 4 (MAP4K4, Homo sapiens, UniProt O95819) | enzyme activity | – | 10 µM | – | remaining activity | 84% |

Some of these lines once more:
| SMILES | target | test | system | setting | how to read | quantity | value |
| --- | --- | --- | --- | --- | --- | --- | --- |
| O=C(O)c1cccc(-c2noc(-c3ccccc3F)n2)c1 | Flavin reductase (NADPH) (BLVRB, Homo sapiens, UniProt P30043) | binding | – | – | – | koff | 0.012 s⁻¹ |
| C[C@H]1C(=O)/C(=C/c2ccccc2)[C@H]2C[C@@H]1N(Cc1ccccc1)C[C@@]2(C)O | Sigma intracellular receptor 2 (Tmem97, Rattus norvegicus, UniProt Q5U3Y7) | radioligand binding | – | 1 µM, together with: [3H]DTG | – | binding | no binding |
| Cc1n[nH]c2ccc(-c3cc(OC[C@@H](N)Cc4ccccc4)cnc3-c3ccoc3)cc12 | PHO85 | kinase binding, competitor, MIB/MS competition, item: PHO85 | Candida albicans cell lysate | 1 µM | relative to: DMSO | log2 fold change | 0.232 |
